Experimental data from different studies.
A part holds a random share of what one study measured.

Series 1 — method: RNA Bind-n-Seq; molecule type: RNA; sample: in vitro; concentration: 365 nM; relative to: no-protein control; reading: higher = stronger binding
Target: RNA binding protein fox-1 homolog 2, RRM domain, GST-SBP tag (RBFOX2, Homo sapiens, UniProt O43251-10, residues 100-194)
Notes: natural RNA segment, single round, ends assumed
Construct (chain): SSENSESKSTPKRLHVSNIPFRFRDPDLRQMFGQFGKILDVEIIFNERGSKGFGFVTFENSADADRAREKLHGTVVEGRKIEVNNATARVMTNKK
| Oligonucleotide | RBNS enrichment (R) |
| --- | --- |
| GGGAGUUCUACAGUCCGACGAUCAAAAAUUAGCUGGGCAUGAUGGCAUGCUCCUGUGGUCCCAGCUACUUGGGAGGCUGAGGCAGGAGGAUCACUUGGUCCCAGGAGUUUGAGGCGACAGUGAGCUAGGAUCGUGGAAUUCUCGGGUGCCAA | 7.01 |
| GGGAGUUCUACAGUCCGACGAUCUGACUGAGUACUGAGAUGCGAAGAGAAGCCGCACUCACCUACCCACCGCUCCCUUGGACGGGCUGCGACCCGCCAUCCUGGGGGUCAACACAGGAGGACAGAAGAGAGUGUGGAAUUCUCGGGUGCCAA | 0.316 |
| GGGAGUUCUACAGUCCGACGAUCGGCCUCCAGGACAUCUGCACCCCCUCCCCACCUCCACGGACCUCGGACCUCCAGGCGGCUCAGUGCUGCCUGCGGCCCAGCUAAGGGGCCUGGCCACUGGGUGCCACCCAUGGAAUUCUCGGGUGCCAA | 0.24 |
| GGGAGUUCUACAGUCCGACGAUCCGGGAGGCUGAGGCAGGAGAAUCGCUUGAACCCAGGAGGCGGAGGUUGCAGUGAGCCAAGAUGGCGCCAUUGCACUCCAGCCUGGGCGACAAGAGCAAAACUCCGUCUCAUGGAAUUCUCGGGUGCCAA | 0.211 |
| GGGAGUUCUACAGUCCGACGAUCGCUACCUCCGAUGACAGAAACGUGCUUUUACUGUAGGUAAAACCAUAAGAAAAGAAAAUAAUCUCAAUUAUUUUCAGAGCUAAAGUUUAUAUUGAUCUUACCAAAUCAACUGGAAUUCUCGGGUGCCAA | 0.651 |
| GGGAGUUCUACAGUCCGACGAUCUUUAAAGGCAAGUGGUGUCCAAGAAACAGAGCAUCCUUCCUGCCGUUCAACGCUCAGCUUUUCCGAAAACCUAAAGCUUGUGUUCUCUUUGCUUUGACUGCAAAUUGUACUGGAAUUCUCGGGUGCCAA | 0.396 |
| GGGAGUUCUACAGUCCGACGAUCUUGGGAGGAGUGAGCAGGCCCCGGGGGAGGGGGAUGAGCGCAGUUUGCUCGCUUUCCUCCCCUGCCGGCCCCCUCCGCCCCCACACACACUCGGGACGUCUUCAUUGAAGUGGAAUUCUCGGGUGCCAA | 0.18 |
| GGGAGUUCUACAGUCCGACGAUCCAGUAGGCAUAAUUCAGCAACAAACAAUCUUCCUUUGGGAGAAACCUGUUCAUUCCAAUCUUCUAAUUACAGUGGUUCCUAUCUCAGGGAUACUGGACUUUCUGACGCAGUGGAAUUCUCGGGUGCCAA | 0.252 |
| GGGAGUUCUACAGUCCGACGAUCUCCAUCCUUUCUUUUUUGUAUAUUAUUGUUUACAAUAAAUAUACAUUGCAUUAAAGUGAAAACAGCCCCUUUGACUUAUUCACUCUGUUCUCCUAUGAAGAGUGCUUUAAUGGAAUUCUCGGGUGCCAA | 0.405 |

Series 2 — method: RNA Bind-n-Seq; molecule type: RNA; sample: in vitro; concentration: 100 nM; relative to: input RNA pool; reading: higher = stronger binding
Target: RING finger protein unkempt homolog, zinc fingers 1-6, SBP tag (UNK, Homo sapiens, UniProt Q9C0B0, residues 30-357)
Sequence of UniProt Q9C0B0 (30-357, looked up): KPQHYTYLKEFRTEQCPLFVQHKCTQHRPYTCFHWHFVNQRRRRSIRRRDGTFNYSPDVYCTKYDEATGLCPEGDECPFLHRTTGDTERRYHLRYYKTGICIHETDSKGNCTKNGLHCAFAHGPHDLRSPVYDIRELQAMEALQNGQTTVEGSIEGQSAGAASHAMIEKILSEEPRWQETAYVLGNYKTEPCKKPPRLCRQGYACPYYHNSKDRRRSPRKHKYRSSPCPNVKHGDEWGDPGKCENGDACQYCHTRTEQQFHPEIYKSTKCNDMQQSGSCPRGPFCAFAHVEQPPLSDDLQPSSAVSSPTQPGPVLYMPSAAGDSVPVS
Notes: RNA with constant flanks, vertebrate orthologous sites, ends assumed
| Oligonucleotide | bound/input enrichment [ratio] |
| --- | --- |
| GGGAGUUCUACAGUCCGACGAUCUCUAUACAGUUUCAAAGAUACUUCCUUAUAGAGUGCUUUGGCGCUUCACAUAUUUAAUCGUAUUUACAUAUCUAUUUUUUAUAAAUAGCAGUAUAAGUUUAAAGGGGACUCACUUGGUGUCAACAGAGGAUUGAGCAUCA | 0.684 |
| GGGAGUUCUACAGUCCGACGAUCAUUCAAACCUGUGGUACCCUGGCCUCAUGUUGAAGGAGUAGAAGUGGACUUAGAAUCUAUUAGAAGAAAAAACAAGGCCAAAAAUGAACACGAGCACCAUGCUGGAGGAGAGAACCAGAGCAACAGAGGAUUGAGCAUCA | 0.608 |
| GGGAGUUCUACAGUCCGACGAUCUGUCCUUGUUAAGCACUGCGGUCCAGACCGUGUCUGACUUAGUUAACCUAGGGGAUUUUAUAGUUUUACUUUAAUGAAGUCUGGACUAACACAGAGCUGUGAGGAGGACGGUCCCUCUCCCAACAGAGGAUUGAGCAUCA | 0.598 |
| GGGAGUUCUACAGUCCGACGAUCCGGCCGACUCGCUCAUCGGGAGGGCGGCACACAUCGCUGUGCUCGACUCGGAAAUAUUCCUAGAGAAGUUCUUCCUGGUUGCUGCCCUCAAGUAUUUCCAGUAGAAUAAGAGCAUUGCUACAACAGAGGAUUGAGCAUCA | 0.216 |
| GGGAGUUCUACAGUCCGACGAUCUAUUAGUGUCAUACCAGCAUAUUAACCUCUCGUCUGUGCACAGCUUCAAAUGUUACCGUCUAGUUAGAUUUUUAUUUAAAAUAUGAAAAACUGCUUUUCCCAAGACGUUUUUUAAAAGACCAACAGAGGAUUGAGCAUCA | 1.54 |
| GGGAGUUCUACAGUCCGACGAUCCUGCAGGAAUGGCCCCGUCGCGCCUGUUUAUUCUGUAAACUACAGCCUGUAAAUAACAUUUAGCAUUCCUAUUGUAACAGAAUUAAUUUUUAUGAAAUAAAUUAUAUUUCCUAGUCUAAUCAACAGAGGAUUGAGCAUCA | 0.421 |
| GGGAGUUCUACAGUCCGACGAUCGGGCCGCAGGUGGGGUAAUUACAUGCCCUAGCCUUGCCUCCCCUUCCUGUCACCGGCUCCUAGUUAUUUUUUUUUUAACCACCACGUGAUUAAGGUCGGAGCUGCCUCCUCCCGACCCGCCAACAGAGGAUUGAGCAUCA | 1.03 |
| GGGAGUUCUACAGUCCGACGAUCACUGAAUAGGCAUUUUACAUACCACAUCAAAGCCUUGUUGUUUUGUUUUUUACUUAUUUACUGCUUACCAGGUUUCUGCAUGAAAGACAAAGGACUUCCAUGCUUAAAGUUAAUAUGGUCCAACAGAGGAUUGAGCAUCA | 0.631 |
| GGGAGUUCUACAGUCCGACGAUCUUCAGUCUUCCACAUAGGGUCGGCCUCAGAUCUAUAGGAUUUAUGACAAAUGUAUUAUUAUAUCUAGUUGAGUUUAAUAUUUUUUUAUUAGCCUGUAAAUAAAGAUGGCAUCUUCUACAUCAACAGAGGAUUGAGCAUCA | 1.06 |
| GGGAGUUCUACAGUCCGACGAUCGUGUUGGUGCAGAGUGCUCUGUGCCAGUUGCUCAUCAUCCCUUUUUCAUACCAACAGCCCUAGUUACAGGAAUUUAAUAUUUUUAAAAAUUUACAUCGCUGUAUAUUCAAAGAUUUGUUUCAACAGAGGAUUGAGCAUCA | 0.46 |
| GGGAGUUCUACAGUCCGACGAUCCACGCUUUAUUGAUUUCUAAUUUAUUUCACUUUGACUAUGGUUUAUGAUUUGCUAUACCAAAUGGUGGUGGUAAAAACCUUUACCUAUAAUGGGCGUUGCUAUAGUAACAUGUGUUUGUUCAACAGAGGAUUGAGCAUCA | 0.963 |

Series 3 — method: RNA Bind-n-Seq; molecule type: RNA; sample: in vitro; concentration: 200 nM; notes: whole 134-nt RNA, ends assumed; together with: 150 mM KCl; relative to: input library; reading: higher = stronger binding
Target: Fragile X messenger ribonucleoprotein 1, C-terminal low-complexity region (Fmr1, Mus musculus, UniProt P35922)
| Oligonucleotide | log2 enrichment |
| --- | --- |
| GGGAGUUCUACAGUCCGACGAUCAAAAUGCAGGUGGGCAUCUUUGGGAAGUGGGGCAAGGGGGGGAUAGGGAGGGGGGUAACACUUUGGGAACAGGUGGUCCCAGGUCGUUUCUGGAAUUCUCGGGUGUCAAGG | 0.863 |
| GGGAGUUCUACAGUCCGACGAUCUUCACAGCCAGCAGGCAUUGGAAUAUGGCACCAAACUCGUUGGAGGAACCACUCCAGGGAAAGGAGGCCAGACACAUCUGGGCUUACCUGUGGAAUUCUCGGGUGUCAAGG | -0.342 |
| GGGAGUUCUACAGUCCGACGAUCGCAGAAAGUAAAAACAAAUGGAAAUGCUUCGGAUAGUGGCAGGGGUGGGGGUUGCUAAGGAAAGGGUGGGAUGGGAGUGGGUAAAGAGUUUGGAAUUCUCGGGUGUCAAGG | 0.664 |
| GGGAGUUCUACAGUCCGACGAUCUCAAGUCCUGUGCUACACAUCGUAUGUACCGAAUCGGAAAGGGGAAAGGAAAGGAAAGUAUUAUGUUACGCCGUUCGGAUCUGCACUUCCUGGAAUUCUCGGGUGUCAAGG | -0.674 |
| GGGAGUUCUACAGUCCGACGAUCUUGGAUGAAGAUGGCAAAGUCCUGACCCCGGAGGAGCUGCUCUACCGGGUAAGGGGGCCUCCUCUGCCAGACCCUAGAGACCUCUCUGGGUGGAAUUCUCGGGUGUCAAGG | -0.988 |
| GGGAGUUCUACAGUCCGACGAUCUGGGAGGUGGAUUUUGUUUAUUUUUCUAGCUCAUUUCCAGGGGUGGGAAUUUUUUUUUAAUAUGUGUCAUGAAUAAAGUUGUUUUUGAAAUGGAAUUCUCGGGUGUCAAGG | 0.277 |
| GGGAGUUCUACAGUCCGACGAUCAAGUCCUGUGCUACACAUCGUAUGUACCGAAUCGGGAAAAGGGAAAAGGGAAAAGGGAAAGUAUUAUGUUACGCCGUUCGGAUCUGCACUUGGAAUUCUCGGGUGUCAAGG | -0.075 |
| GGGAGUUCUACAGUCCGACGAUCUCCUGUGCUACACAUCGUAUGUACCGAAUCGGGUUUUUUUGGGAAAAAGGGUUUUUGGGAAAGUAUUAUGUUACGCCGUUCGGAUCUGCAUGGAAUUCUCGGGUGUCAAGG | -0.183 |
| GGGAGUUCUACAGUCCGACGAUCUGGCCCUGGUGGCAUGCGGGGAGGAAGAGGUGGCCUCAUGGAUCGUGGUGGUCCCGGUGGAAUGUUCAGAGGUGGCCGGGGUGGAGACAGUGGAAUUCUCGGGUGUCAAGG | 0.0931 |
| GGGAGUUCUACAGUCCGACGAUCUCAAGUCCUGUGCUACACAUCGUAUGUACCGAAUCGGAAAAAGGAAAAAGGAGGAAAGUAUUAUGUUACGCCGUUCGGAUCUGCACUUCCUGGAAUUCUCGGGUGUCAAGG | -0.469 |

Series 4 — method: aptamer microarray, sandwich; molecule type: DNA with 2'F-ANA; sample: in vitro; concentration: 200 nM; together with: Cy3 exosite-II aptamer, 400 nM; reading: higher = stronger binding; oligonucleotide: GGTTGGTGTGGTTGG
Target: Prothrombin, mature alpha-thrombin (F2, Homo sapiens, UniProt P00734)
Notes: whole 15-mer aptamer, many near background
| Modification | mean fluorescence intensity [a.u.] |
| --- | --- |
| 2'F-ANA at 3 4 5 6 7 8 12 15 | 254 |
| 2'F-ANA at 6 8 9 12 13 14 15 | 157 |
| 2'F-ANA at 3 5 6 7 8 9 10 11 12 13 14 | 58.1 |
| 2'F-ANA at 2 5 9 10 11 12 14 | 48.3 |
| 2'F-ANA at 1 2 4 5 6 9 10 11 12 13 15 | 53.2 |
| 2'F-ANA at 1 2 3 4 6 7 8 9 15 | 183 |
| 2'F-ANA at 2 4 6 8 9 11 13 14 15 | 69.4 |
| 2'F-ANA at 4 7 10 13 14 | 60.2 |
| 2'F-ANA at 1 2 3 5 9 10 12 13 15 | 52.2 |
| 2'F-ANA at 3 4 5 8 9 11 15 | 84.8 |
| 2'F-ANA at 1 2 3 6 11 13 | 210 |
| 2'F-ANA at 1 2 4 5 7 11 13 14 15 | 61.3 |
| 2'F-ANA at 1 2 3 6 7 9 10 | 65.4 |
| 2'F-ANA at 3 4 6 7 8 10 11 13 15 | 212 |
| 2'F-ANA at 1 6 7 8 9 10 12 14 | 60.6 |
| 2'F-ANA at 4 6 9 11 14 | 71.4 |
| 2'F-ANA at 2 3 4 5 6 7 8 10 11 12 13 | 57 |
| 2'F-ANA at 2 4 6 13 15 | 171 |
| 2'F-ANA at 1 2 4 5 6 11 | 55.2 |
| 2'F-ANA at 3 4 5 6 7 12 | 241 |
| 2'F-ANA at 1 3 5 6 8 10 11 12 | 48.7 |
| 2'F-ANA at 1 2 3 4 5 6 9 10 11 12 13 15 | 49.4 |
| 2'F-ANA at 2 6 7 10 12 14 15 | 90.8 |
| 2'F-ANA at 3 4 6 8 11 12 15 | 844 |
| 2'F-ANA at 1 2 4 5 6 8 9 12 15 | 126 |

For quick reference, copied from above (series 4):
| Modification | mean fluorescence intensity [a.u.] |
| --- | --- |
| 2'F-ANA at 6 8 9 12 13 14 15 | 157 |
| 2'F-ANA at 3 5 6 7 8 9 10 11 12 13 14 | 58.1 |
| 2'F-ANA at 2 5 9 10 11 12 14 | 48.3 |
| 2'F-ANA at 1 2 4 5 6 9 10 11 12 13 15 | 53.2 |
| 2'F-ANA at 1 2 3 4 6 7 8 9 15 | 183 |
| 2'F-ANA at 2 4 6 8 9 11 13 14 15 | 69.4 |
